{"data": "Experimental data of several laboratories", "cell line": "NCI-H226", "note": "Protocols differ between the studies behind these lines."}
{"Compound": "CC(=O)OC[C@H]1O[C@@H](Sc2sc(C(=O)c3ccc(Br)cc3)c(N)c2-c2nc3ccccc3s2)[C@H](OC(C)=O)[C@@H](OC(C)=O)[C@H]1OC(C)=O", "test": "SRB", "setting": "10 µM, 48 h", "how to read": "relative to: untreated", "quantity": "growth", "value": "65.6%"}
{"Compound": "COc1cc(CNC(=O)C[C@H](C)CCC=C(C)C)ccc1OCc1cn(-c2ccc(F)cc2)nn1", "test": "SRB", "setting": "10 µM, 48 h", "quantity": "growth percent", "value": "51.4%"}
{"Compound": "CC(Cc1ccc(Cl)cc1)=C(c1ccc(Cl)cc1)c1ccc(OCCN(C)C)cc1", "test": "cell growth or viability, SRB", "quantity": "GI50", "value": "4990 nM"}
{"Compound": "CC/C=C\\C/C=C\\C/C=C\\C/C=C\\C/C=C\\C/C=C\\CCC(=O)Nc1ccn(C2OC(CO)C(O)C2(F)F)c(=O)n1 (stereo not drawn)", "test": "cell growth or viability, SRB", "quantity": "GI50", "value": "67.2 nM"}
{"Compound": "CC(=O)OC[C@H]1O[C@@H](Sc2sc(C(=O)c3ccc(C)cc3)c(N)c2-c2nc3ccccc3s2)[C@H](OC(C)=O)[C@@H](OC(C)=O)[C@@H]1OC(C)=O", "test": "SRB", "setting": "10 µM, 48 h", "how to read": "relative to: untreated", "quantity": "growth", "value": "30.3%"}
{"Compound": "COc1cc(CNC(=O)C[C@H](C)CCC=C(C)C)ccc1OCc1cn(-c2ccc(C#N)cc2)nn1", "test": "SRB", "setting": "10 µM, 48 h", "quantity": "growth percent", "value": "54.9%"}
{"Compound": "C=C(F)C(=O)Nc1cnn2ccc(-c3ccc(C4CCCCC4)cc3)nc12", "test": "RT-qPCR, measured: CYR61, CTGF, ANKRD1", "setting": "10 µM, 24 h", "quantity": "mRNA level decrease", "value": "≤ 75%"}
{"Compound": "COc1cc(CNC(=O)C[C@H](C)CCC=C(C)C)ccc1OCc1cn(-c2ccc(Cl)c(Cl)c2)nn1", "test": "SRB", "setting": "10 µM, 48 h", "quantity": "growth percent", "value": "50.5%"}
{"Compound": "CC(=C(c1ccc(O)cc1)c1ccc(Cl)cc1)c1ccc(Cl)cc1", "test": "cell growth or viability, SRB", "quantity": "GI50", "value": "2750 nM"}
{"note": "Repeated from above:"}
{"Compound": "COc1cc(CNC(=O)C[C@H](C)CCC=C(C)C)ccc1OCc1cn(-c2ccc(C#N)cc2)nn1", "test": "SRB", "setting": "10 µM, 48 h", "quantity": "growth percent", "value": "54.9%"}
